Measurements collected from several papers.
Numbered parts are unrelated; each lists some results of a single study. Positions count from the first letter of the parent shown.

Study 1 — technique: RNAcompete; molecule type: RNA; matrix: in vitro; concentration: 20 nM; setting: 7-mer, probes averaged, single round; baseline: mean of 7-mers; direction: higher = stronger binding
Target: PABPC1L2, full length, GST fusion (mouse, UniProt A0ABA7IW68)
Residues (chain): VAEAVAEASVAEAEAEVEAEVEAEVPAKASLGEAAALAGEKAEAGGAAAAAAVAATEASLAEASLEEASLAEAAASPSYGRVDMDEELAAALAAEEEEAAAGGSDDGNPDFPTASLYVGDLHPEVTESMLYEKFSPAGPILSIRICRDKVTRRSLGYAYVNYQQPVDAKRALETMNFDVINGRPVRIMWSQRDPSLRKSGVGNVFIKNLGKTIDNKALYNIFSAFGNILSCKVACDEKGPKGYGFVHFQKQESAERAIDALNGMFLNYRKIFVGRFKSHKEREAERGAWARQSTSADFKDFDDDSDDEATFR
Strand | 7-mer Z-score
AUGGAAU | 0.0478
AUAGGAG | 0.0225
GUCGAAG | -0.157
AGCAAAA | 3.24
AUUCUCA | -0.311
GAGUACU | -0.269
CUCGUUA | -0.374
UUUAACG | -0.19
AAGCAGU | 0.137
GUGUGAG | -0.253
UCACAUC | -0.255
CUGCACC | -0.277
ACAUAUG | 0.0406
UGCUGAC | -0.11
GCGCCAA | 0.00617

Study 2 — technique: RNA Bind-n-Seq; molecule type: RNA; matrix: in vitro; concentration: 365 nM; baseline: no-protein control; direction: higher = stronger binding
Target: RNA binding protein fox-1 homolog 2, RRM domain, GST-SBP tag (RBFOX2, Homo sapiens, UniProt O43251-10, residues 100-194)
Setting: natural RNA segment, single round, ends assumed
Residues (chain): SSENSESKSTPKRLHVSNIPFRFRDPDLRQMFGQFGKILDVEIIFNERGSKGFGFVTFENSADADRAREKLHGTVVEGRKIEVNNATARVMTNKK
Strand | RBNS enrichment (R)
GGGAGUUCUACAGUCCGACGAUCCCACCAGCCUUUCUUCCCCUUUGUGUGUGUGGUUCAAGUGUGCACUGGGAGGAGGCUGAGGCCUGUGAAGCCAAACAAUAUGCUCCUGCCUUGCACCUCCAAUAGGUUUUUGGAAUUCUCGGGUGCCAA | 0.351
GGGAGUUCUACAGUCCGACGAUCUCUUUGUAAUUAUUUCUUUAGUUUAAUUAACCUUUUGGUUGUUUGUGCAAUAUUAUAUAUUUUAAAUUAUAAUGCAUCUCCCCAGAGUAUUUUGUAGCUGGGAAAAGAAAUGGAAUUCUCGGGUGCCAA | 4.12
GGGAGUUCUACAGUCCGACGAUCUCCUCGGGGAGGCCCCUGCCCCCACCCUGCCAGCCCUUCCCAGUCUCAUUAGAGGAAGCUUUCCAAAGUUCUCAGUUAUCAAGACCUCAUCCAGCUCGUCCAAAGGCUUCUGGAAUUCUCGGGUGCCAA | 0.523
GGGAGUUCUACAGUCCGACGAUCGCGGUGUCACCAUGAGCACCUCCAGCUGUACUAGUGCCAUUGGAAUAAUAAAUUUGAUAAGGUGGUGCUCUGUUCUGCAUUUUUCACGGUGUCUUCGCAGGGGAGCGGGGUGGAAUUCUCGGGUGCCAA | 0.76
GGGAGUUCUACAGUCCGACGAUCUAUGAUUUGGAGGGUUUAAUUUCCUUUUGUGAGGAUUACUGCUACUUCUUCCUAGCCAAUUCCUCAUUCUCUCACGUGACAACAGCUGAAAGUGCCAGGUGCUAGAUUCCUGGAAUUCUCGGGUGCCAA | 0.443
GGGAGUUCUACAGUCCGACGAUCAUCCCAAGGCAAUACUUCCAGACUAAGGUGGCCAUCCAGCAUUCCUUUGAGUCCUCCAAGAAAGAUGAUACUUGGUUCAUUUCAAAAAACCAAAUGCAGACAAAUGGGAGUGGAAUUCUCGGGUGCCAA | 0.271
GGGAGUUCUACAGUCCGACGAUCAGAGAAUGAGAAGUAGCUAGCUAGUUCAAAUGUAUAUGUGUGUGUAUGCAUAGAGCAUCUCCCCUGCCGGGUGUGUGAAUAACAUUGAAGCCCUCUGAGAAAGCAGGGCAUGGAAUUCUCGGGUGCCAA | 0.605
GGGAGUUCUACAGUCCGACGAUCCCACACCAACCCUGUGCUCUCUGGCCCCCAGCUGGCCACACUUCUCCAGGAGGGACCCUUGGACUUCUUUGUGUGUCCAGUUUGGCCUCCUGCCCAAACUGUCCAUUCCAUGGAAUUCUCGGGUGCCAA | 0.369
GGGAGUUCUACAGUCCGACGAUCAGAUGCUGAGAGUAGGUGAUAAUGUAUAUUUUACAGAGUGGGGGUUGGCAGGAUGGUGACAUUGAACAUGAUUGCUCUCUGUCUCUUUUUUCAGCUUAUGGGUAUUUAUCUGGAAUUCUCGGGUGCCAA | 0.684
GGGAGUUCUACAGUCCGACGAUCGACUUUUCUUUUGGGGCAAGUUCAGUGUAUUUAUGUGAAACUUUAUAAGAGAACUAAUUUUUCCAUUUGCAUAUUAAUAUGUUCCUCUAUACAUGUAAAGACACAGUGGCUGGAAUUCUCGGGUGCCAA | 0.406
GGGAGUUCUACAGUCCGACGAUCUUCAGCAUCACUCUACCCUCCCAUGUCCUUAGCAUUGCUGUGCGUGUUUCCAGGCACUUAGGACACCCUUCCCCACGUUGCCAUCUUACUGACAGUUCAAAUGACUCUCCUGGAAUUCUCGGGUGCCAA | 0.955
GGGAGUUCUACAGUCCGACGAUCAUCUUGAAGUUACACAUAACUUCUUACUAGCCAGUAUGGCAAAAGUAGGCAUCUAAAGAAUAUAAAGCCUCAAAUCUUCCUUACUGUCUCUCUUGUCACAUGGAAUCUACUGGAAUUCUCGGGUGCCAA | 0.324

Study 3 — technique: protein-binding microarray; molecule type: double-stranded DNA, one strand shown; matrix: in vitro; concentration: 940 nM top; setting: 60-bp whole probe; added: salmon DNA 0.4 mg/ml; baseline: random background probes; direction: higher = stronger binding; all sequences stand within: GCCTAGCAC … GTCTTGATTCGCTTGACGCTGCTG
Target: Interferon regulatory factor 5, full length, phosphomimetic (IRF5, Homo sapiens, UniProt Q13568-2, residues 1-514, S451D/S453D/S456D/S462D)
Strand | fitted relative affinity [z-score]
GACGCTTTCGGTTCCGGGACGTGCTAG | 6.35
GACCCTGGACACTTCACGTAGTGCTAG | -0.207
GACGATCTCAGTCTCGAGTCGTGCTAG | 2.61
TCACCTCTAGGAATGTAACTGTGCTAG | -0.11
GACGATATCAGTCTCGACACGTGCTAG | 1.27
GACGGACTGGTCTTTCGGGACGTGCTA | -0.202
TTAGGTATCCTTCACCTTTAGTGCTAG | 0.608
GACGGTCGCCTTTTCCTGACGTGCTAG | 0.244
GACGATTGCAGTCTCGAGACGTGCTAG | 0.605
GACGGGATCGGTCTCGGGACGTGCTAG | 0.63
TTAGGTAACGACTTTCGGTTAGTGCTA | 3.18
TCATCCCTTTCTCTCTGACTGTGCTAG | 1.3
GACGATTCCAGTTTAGAGACGTGCTAG | -0.0468
TTAGGACTGCCTATCCTTTAGTGCTAG | -0.306
GACGGTTTCATTTCCCTGACGTGCTAG | 5.37
GACGAACTGAGTATCGAGGCGTGCTAG | 0.813
TTAGGTTTCCTTATCATTTAGTGCTAG | 1.84
TCAGGTTTCGGACTGGGTTAGTGCTAG | 6.34

Study 4 — target: JDP2, bZIP domain (human); technique: DHFR protein complementation; matrix: yeast; baseline: wild-type JUN-FOS pair; direction: higher = stronger binding
Setting: single substitutions, most at no-binding floor
Starting sequence: JUN, bZIP domain (human); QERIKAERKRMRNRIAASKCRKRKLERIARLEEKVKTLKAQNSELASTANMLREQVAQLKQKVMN; partner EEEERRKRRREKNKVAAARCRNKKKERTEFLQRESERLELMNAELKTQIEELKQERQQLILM
Variant | binding fitness
L38F | 0.0526 natural log
E32M | 0.248 natural log
L52V | 0.196 natural log
M51S | 0.295 natural log
A57K | 0.31 natural log
K36E | 0.315 natural log
V56W | -0.612 natural log
T37A | 0.331 natural log
R53N | 0.201 natural log
M51V | 0.25 natural log
A46I | 0.229 natural log
T37W | 0.267 natural log
Q58R | 0.114 natural log
L45S | -0.126 natural log

Study 5 — technique: universal PBM; molecule type: double-stranded DNA, one strand shown; matrix: in vitro; concentration: 600 nM; direction: higher = stronger binding
Target: Sal-like protein 4, full length isoform A (SALL4, Homo sapiens, UniProt Q9UJQ4, residues 1-1053)
UniProt Q9UJQ4, sequence (whole entry, looked up): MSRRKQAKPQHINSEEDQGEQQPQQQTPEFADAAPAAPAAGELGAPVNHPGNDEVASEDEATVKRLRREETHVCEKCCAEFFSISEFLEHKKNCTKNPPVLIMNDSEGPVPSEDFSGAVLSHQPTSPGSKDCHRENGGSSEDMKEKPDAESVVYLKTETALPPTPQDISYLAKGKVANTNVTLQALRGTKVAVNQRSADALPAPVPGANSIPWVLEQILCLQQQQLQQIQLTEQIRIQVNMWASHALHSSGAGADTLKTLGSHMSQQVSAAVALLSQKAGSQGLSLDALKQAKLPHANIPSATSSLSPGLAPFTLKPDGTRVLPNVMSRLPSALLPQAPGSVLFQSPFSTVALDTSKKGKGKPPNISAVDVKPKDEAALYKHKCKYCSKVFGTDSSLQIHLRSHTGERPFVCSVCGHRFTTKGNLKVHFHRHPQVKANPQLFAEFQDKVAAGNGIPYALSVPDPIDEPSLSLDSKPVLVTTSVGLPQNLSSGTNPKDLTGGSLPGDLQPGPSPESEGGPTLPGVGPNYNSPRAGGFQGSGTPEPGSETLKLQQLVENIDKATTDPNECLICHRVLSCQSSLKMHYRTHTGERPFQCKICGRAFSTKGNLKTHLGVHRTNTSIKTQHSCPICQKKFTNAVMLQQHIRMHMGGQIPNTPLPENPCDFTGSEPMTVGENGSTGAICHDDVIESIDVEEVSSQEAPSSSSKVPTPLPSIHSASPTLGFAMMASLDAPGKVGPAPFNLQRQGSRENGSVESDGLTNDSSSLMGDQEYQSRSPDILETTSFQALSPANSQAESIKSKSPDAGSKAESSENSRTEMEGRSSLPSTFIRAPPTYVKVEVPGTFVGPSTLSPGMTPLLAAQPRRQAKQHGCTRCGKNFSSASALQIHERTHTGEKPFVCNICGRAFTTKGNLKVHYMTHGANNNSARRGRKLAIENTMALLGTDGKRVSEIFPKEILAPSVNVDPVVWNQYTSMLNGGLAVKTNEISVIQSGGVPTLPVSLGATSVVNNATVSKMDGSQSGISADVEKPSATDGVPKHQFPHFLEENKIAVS
Setting: 8-mer, flanks averaged, mean of replicates
Strand | E-score
AATAGGCT | 0.0527
CTCTGCGC | -0.322
ACAAAGGT | 0.0221
AGATGTGG | 0.17
AATGATAG | 0.219
ATTACTTG | 0.237
GAGCGGAC | -0.344
CGACGATC | -0.0728
CTCCATCA | 0.00218
AGACGACG | -0.208
CAATCCAG | -0.157
AGCTGAAC | -0.289
GGGTGTTA | 0.0298
GAATGGGA | -0.0648
ATAAGATA | 0.306
CCTCCAGC | -0.18
CTACGGAC | -0.219
CATCATAA | 0.313
CATGGTAG | -0.151
CTCACGGC | -0.285
CCAGAGCC | -0.273
TGGCTCAA | -0.0636

Study 6 — technique: protein binding microarray; molecule type: double-stranded DNA, one strand shown; matrix: in vitro; concentration: not given; baseline: not given; direction: higher = stronger binding
Target: Histone acetyltransferase KAT6A, winged helix 2, GST fusion (KAT6A, Homo sapiens, UniProt Q92794, residues 85-181)
Setting: 8-mer, flanks averaged, mean of 2 arrays, mostly near background
Target sequence (chain): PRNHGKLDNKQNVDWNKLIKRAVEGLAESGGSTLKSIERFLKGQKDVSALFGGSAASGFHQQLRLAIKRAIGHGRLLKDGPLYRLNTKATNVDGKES
Strand | E-score
CTTAACCC | 0.0471
GTCAGGAA | 0.0144
GAAACCGC | 0.133
GCCCGCGA | 0.155
CTTTATCC | -0.0927
GACACAGC | 0.145
GTCCCGGA | 0.104
ACGAAGTA | 0.0113
ACCTGAAT | -0.00277
CTAGAATA | -0.0646
CTAGCCGC | 0.172
AGGACGCG | 0.0486
AAGTTCGG | 0.101
CGAATTAA | 0.0835
GCAAATGC | 0.09
ATGACGAA | 0.0442
CAGAGGCG | 0.149
CGAGTTAA | 0.144
GACTCCAC | -0.199
ATACTCGA | -0.133
ATGCACTA | -0.093
ACCATGGA | -0.164
GCGACGAC | -0.0877
CTCCCAAG | 0.0777
GGTTCAAC | -0.0286

Some of these lines once more (study 4):
Variant | binding fitness
E32M | 0.248 natural log
L52V | 0.196 natural log
M51S | 0.295 natural log
A57K | 0.31 natural log
K36E | 0.315 natural log
V56W | -0.612 natural log
T37A | 0.331 natural log
R53N | 0.201 natural log
M51V | 0.25 natural log
